Published values gathered from unrelated publications.
Compare with care: the assays were run in different laboratories.
Organism: Escherichia coli

With `CC(C)C[C@@H](NC(=O)[C@H](NC(=O)[C@@H](CCCCN)NC(=O)[C@@H](CCCCN)NC(=O)[C@@H](CC(C)C)NC(=O)[C@@H](Cc1c[nH]c2ccccc12)NC(=O)[C@@H](CCCCN)NC(=O)[C@@H](CC(C)C)NC(=O)[C@@H](CC(C)C)NC(=O)[C@@H](CCCCN)NC(=O)[C@@H](CCCCN)NC(=O)[C@H](N)C(C)C)C(C)C)C(N)=O` the MIC was 16 µM (24 h, 37 °C, Mueller-Hinton broth, FeCl3 4 µM).
The MIC of `CC[C@H](C)[C@H](NC(=O)[C@@H](CCCNC(=N)N)NC(=O)[C@H](CCCNC(=N)N)NC(=O)[C@H](Cc1c[nH]cn1)NC(=O)[C@H](Cc1c[nH]c2ccccc12)NC(=O)[C@H](CCCNC(=N)N)NC(=O)[C@@H]1CCCN1C(=O)[C@H](CCCNC(=N)N)NC(=O)[C@@H]1CCCN1C(=O)[C@H](CC(C)C)NC(=O)[C@H](Cc1ccc(O)cc1)NC(=O)[C@@H]1CCCN1C(=O)[C@@H]1CCCN1C(=O)[C@H](CCCCN)NC(=O)[C@H](CC(=O)O)NC(=O)[C@@H](N)C(C)C)C(=O)N[C@@H](Cc1ccc(O)cc1)C(=O)N[C@@H](CC(N)=O)C(=O)N[C@H](CCCNC(=N)N)C(N)=O` is reported as 16 µg/mL (broth microdilution; ATCC 25922; 18 h, 37 °C, 25% MHB2).
`CC[C@H](C)[C@H](NC(=O)[C@H](CCCNC(=N)N)NC(=O)[C@H](Cc1c[nH]c2ccccc12)NC(=O)[C@H](Cc1c[nH]c2ccccc12)NC(=O)[C@H](CCCNC(=N)N)NC(=O)[C@@H](N)CCCNC(=N)N)C(=O)N[C@@H](Cc1c[nH]c2ccccc12)C(N)=O` has an MIC of 16 µg/mL (25922).
`CC[C@H](C)[C@H](NC(=O)[C@@H](CCCNC(=N)N)NC(=O)[C@H](CCCNC(=N)N)NC(=O)[C@@H]1CCCN1C(=O)[C@H](Cc1c[nH]c2ccccc12)NC(=O)[C@H](CCCNC(=N)N)NC(=O)[C@@H]1CCCN1C(=O)[C@H](CCCNC(=N)N)NC(=O)[C@@H]1CCCN1C(=O)[C@H](CC(C)C)NC(=O)[C@H](Cc1ccc(O)cc1)NC(=O)[C@@H]1CCCN1C(=O)[C@@H]1CCCN1C(=O)[C@H](CCCCN)NC(=O)[C@H](CC(=O)O)NC(=O)[C@@H](N)C(C)C)C(=O)N[C@@H](Cc1ccc(O)cc1)C(=O)N[C@@H](CC(N)=O)C(=O)N[C@H](CCCNC(=N)N)C(N)=O` gave an MIC of 4 µg/mL (broth microdilution; MC4100; 18 h, 37 °C, 25% MHB2).
`CC[C@H](C)[C@H](NC(=O)[C@@H](NC(=O)[C@H](CCCCN)NC(=O)[C@H](CCCCN)NC(=O)[C@@H](NC(=O)[C@H](Cc1c[nH]c2ccccc12)NC(=O)[C@H](CCCCN)NC(=O)[C@@H](NC(=O)[C@H](CC(C)C)NC(=O)[C@H](CCCCN)NC(=O)[C@H](CCCCN)NC(=O)[C@@H](N)C(C)C)[C@@H](C)CC)[C@@H](C)CC)C(C)C)C(N)=O` has an MIC of 32 µM (24 h, 37 °C, Mueller-Hinton broth, human serum 10%).
With `CC[C@H](C)[C@H](NC(=O)[C@@H](CCCNC(=N)N)NC(=O)[C@H](CCCNC(=N)N)NC(=O)CNC(=O)[C@H](Cc1c[nH]c2ccccc12)NC(=O)[C@H](CCCNC(=N)N)NC(=O)[C@@H]1CCCN1C(=O)[C@H](CCCNC(=N)N)NC(=O)[C@@H]1CCCN1C(=O)[C@H](CC(C)C)NC(=O)[C@H](Cc1ccc(O)cc1)NC(=O)[C@@H]1CCCN1C(=O)[C@@H]1CCCN1C(=O)[C@H](CCCCN)NC(=O)[C@H](CC(=O)O)NC(=O)[C@@H](N)C(C)C)C(=O)N[C@@H](Cc1ccc(O)cc1)C(=O)N[C@@H](CC(N)=O)C(=O)N[C@H](CCCNC(=N)N)C(N)=O` the MIC was 4 µg/mL (broth microdilution; MC4100; 18 h, 37 °C, 25% MHB2).
`OB(O)c1ccc(OCc2ccccc2)nc1F` gave an MIC of > 2050 µg/mL (bacterial growth; CTX-M-14 ESBL clinical isolate; without cefotaxime).
For `CC(C)C[C@@H](NC(=O)[C@@H](CCCNC(=N)N)NC(=O)[C@H](N)CCCNC(=N)N)C(=O)N[C@H](CC(C)C)C(=O)N[C@H](CCCNC(=N)N)C(=O)N[C@H](CCCCN)C(=O)N[C@H](CC(C)C)C(=O)N[C@H](CCCCN)C(=O)NCC(=O)N[C@H](CCCCN)C(=O)N[C@H](CCCCN)C(=O)N[C@H](CC(C)C)C(=O)N[C@H](Cc1ccc(O)cc1)C(=O)N[C@H](CC(C)C)C(=O)N[C@H](Cc1ccc(O)cc1)C(=O)N[C@H](Cc1ccccc1)C(=O)N[C@H](CCCCN)C(=O)N[C@H](CC(C)C)C(=O)N[C@H](CCC(N)=O)C(=O)N[C@H](CC(C)C)C(=O)N[C@H](CC(C)C)C(=O)N[C@H](CCCCN)C(=O)N[C@H](CCCCN)C(N)=O`, the MIC was 8 µM (broth microdilution; KCTC 1682, Mueller-Hinton broth; 24 h, 37 °C).
The MIC of `CC(=O)N[C@@H](CC(C)C)C(=O)N[C@H]1CSSC[C@@H](C(=O)N2CCC[C@H]2C(N)=O)NC(=O)[C@H]([C@@H](C)O)NC(=O)[C@H](C(C)C)NC(=O)[C@H]([C@@H](C)O)NC(=O)CNC(=O)[C@H](CCCCN)NC(=O)[C@H](Cc2ccccc2)NC(=O)[C@H](Cc2ccc(O)cc2)NC(=O)[C@H](CCCCN)NC(=O)[C@H](CCC(=O)O)NC(=O)[C@H](Cc2ccccc2)NC(=O)[C@H](CCCNC(=N)N)NC(=O)[C@H](CCCCN)NC(=O)[C@H](CC(C)C)NC(=O)[C@H](CC(=O)O)NC(=O)[C@@H]2CCCN2C(=O)[C@H](CCCCN)NC(=O)[C@H](C(C)C)NC(=O)[C@H](CCCCN)NC(=O)[C@H](CCCCN)NC(=O)[C@H]([C@@H](C)O)NC1=O` is reported as > 40 µM (broth dilution; laboratory strain; 24 h).
`CCCC[C@H](NC(=O)[C@H](Cc1ccc(O)cc1)NC(=O)[C@@H]1CCCN1C(=O)[C@@H]1CCCN1C(=O)[C@H](CCCCN)NC(=O)[C@H](CC(=O)O)NC(=O)[C@@H](N)C(C)C)C(=O)N1CCC[C@H]1C(=O)N[C@@H](CCCNC(=N)N)C(=O)N1CCC[C@H]1C(=O)N[C@@H](CCCNC(=N)N)C(=O)N1CCC[C@H]1C(=O)N1CCC[C@H]1C(=O)N[C@@H](CCCNC(=N)N)C(=O)N[C@H](CCCNC(=N)N)C(=O)N[C@H](C(=O)N[C@@H](Cc1ccc(O)cc1)C(=O)N[C@@H](CC(N)=O)C(=O)N[C@H](CCCNC(=N)N)C(N)=O)[C@@H](C)CC` gave an MIC of 8 µg/mL (broth microdilution; BW25113; 18 h, 37 °C, 25% MHB2).
`CC[C@H](C)[C@H](NC(=O)[C@H](CCCCN)NC(=O)[C@@H](NC(=O)[C@@H](NC(=O)[C@H](CC(C)C)NC(=O)[C@H](CCCNC(=N)N)NC(=O)[C@@H](NC(=O)[C@H](CC(C)C)NC(=O)[C@H](CCCNC(=N)N)NC(=O)CNC(=O)[C@H](Cc1ccccc1)NC(=O)[C@@H](N)CCCNC(=N)N)[C@@H](C)CC)[C@@H](C)CC)C(C)C)C(=O)N[C@@H](C)C(=O)N[C@@H](CCCNC(=N)N)C(=O)N[C@@H](CCCNC(=N)N)C(=O)N[C@@H](C)C(=O)N[C@@H](Cc1c[nH]cn1)C(=O)N[C@@H](CCCNC(=N)N)C(=O)N[C@@H](C)C(=O)N[C@@H](CCCNC(=N)N)C(=O)N[C@@H](CO)C(=O)N[C@@H](C)C(=O)N[C@H](C(=O)N[C@@H](CCCCN)C(=O)N[C@@H](C)C(=O)N[C@@H](C)C(=O)N[C@@H](CO)C(=O)N[C@@H](CC(N)=O)C(=O)N[C@H](C(=O)N[C@@H](C)C(=O)N[C@@H](C)C(=O)N[C@@H](CC(C)C)C(=O)N[C@@H](C)C(=O)N[C@@H](Cc1c[nH]cn1)C(=O)NCC(=O)N[C@@H](C)C(N)=O)C(C)C)C(C)C` has an MIC of ≤ 0.064 µM (bacterial growth, broth microdilution; cation-adjusted Mueller Hinton broth; 18 h, 37 °C).
`CC[C@H](C)[C@H](NC(=O)[C@@H](CCCNC(=N)N)NC(=O)[C@H](CCCNC(=N)N)NC(=O)[C@@H]1CCCN1C(=O)[C@@H]1CCCN1C(=O)[C@H](CCCNC(=N)N)NC(=O)[C@@H]1CCCN1C(=O)[C@H](CCCNC(=N)N)NC(=O)[C@@H]1CCCN1C(=O)[C@H](CC(C)C)NC(=O)[C@H](Cc1ccc(O)cc1)NC(=O)[C@H](CCCNC(=N)N)NC(=O)[C@@H]1CCCN1C(=O)[C@H](CCCCN)NC(=O)[C@H](CC(=O)O)NC(=O)[C@@H](N)C(C)C)C(=O)N[C@@H](Cc1ccc(O)cc1)C(=O)N[C@@H](CC(N)=O)C(=O)N[C@H](CCCNC(=N)N)C(N)=O` has an MIC of 8 µg/mL (broth microdilution; BW25113; 18 h, 37 °C, 25% MHB2).
`CC[C@H](C)[C@H](N)C(=O)N[C@@H](CCCNC(=N)N)C(=O)N[C@H](C(=O)N[C@@H](Cc1c[nH]c2ccccc12)C(=O)N[C@@H](Cc1ccccc1)C(=O)N[C@H](C(=O)N[C@@H](CCCCN)C(=O)N[C@H](C(=O)N[C@@H](CCCNC(=N)N)C(=O)N[C@@H](CCCCN)C(=O)N[C@@H](CCSC)C(=O)N[C@@H](CCCCN)C(=O)N[C@@H](C)C(=O)N[C@H](C(=O)N[C@@H](Cc1ccc(O)cc1)C(=O)N[C@@H](Cc1c[nH]cn1)C(=O)N[C@H](C(N)=O)[C@@H](C)O)[C@@H](C)CC)C(C)C)[C@@H](C)CC)C(C)C` has an MIC of 25 µM (broth dilution; ATCC 25922, Mueller-Hinton broth; 24 h, 37 °C).
`CC[C@H](C)[C@H](NC(=O)[C@H](CCCCN)NC(=O)[C@H](CC(N)=O)NC(=O)CNC(=O)[C@@H](NC(=O)[C@H](C)NC(=O)[C@H](CCCNC(=N)N)NC(=O)[C@H](CC(C)C)NC(=O)[C@H](CCCCN)NC(=O)[C@H](CCCCN)NC(=O)[C@H](CCCCN)NC(=O)[C@H](C)NC(=O)[C@H](CCCCN)NC(=O)[C@@H]1CSSC[C@H](NC(=O)[C@H](CCCNC(=N)N)NC(=O)CN)C(=O)N[C@@H](CC(N)=O)C(=O)N[C@@H](CC(C)C)C(=O)N[C@@H](CC(C)C)C(=O)N1)C(C)C)C(=O)N[C@@H](CCCCN)C(=O)N[C@@H](CCC(=O)O)C(=O)N[C@H](C(=O)N[C@@H](CCCCN)C(=O)N[C@@H](CC(N)=O)C(=O)N[C@H](C(=O)N[C@H](C(=O)N[C@@H](Cc1ccccc1)C(=O)N[C@@H](CC(N)=O)C(=O)N[C@@H](CCCNC(=N)N)C(=O)O)C(C)C)C(C)C)[C@@H](C)CC` has an MIC of 6.25 µM (broth dilution; ATCC 25922).
For `COc1c(NC(=O)c2ccc(NC(=O)[C@H](CC#N)NC(=O)c3ccc(NC(=O)[C@@H](N)Cc4ccccc4)c(OC)c3O)c(OC)c2O)ccc(C(=O)Nc2ccc(C(=O)O)cc2)c1O`, the MIC was > 16 µg/mL.
The MIC of `CC1(C)[C@H](NC(=O)/C(=N\OC2(C(=O)O)CC2)c2nsc(N)n2)C(=O)N1OS(=O)(=O)O` is reported as 4 µg/mL (agar dilution; CDC 1001728, NDM-1).

Some of these lines once more:
`CCCC[C@H](NC(=O)[C@H](Cc1ccc(O)cc1)NC(=O)[C@@H]1CCCN1C(=O)[C@@H]1CCCN1C(=O)[C@H](CCCCN)NC(=O)[C@H](CC(=O)O)NC(=O)[C@@H](N)C(C)C)C(=O)N1CCC[C@H]1C(=O)N[C@@H](CCCNC(=N)N)C(=O)N1CCC[C@H]1C(=O)N[C@@H](CCCNC(=N)N)C(=O)N1CCC[C@H]1C(=O)N1CCC[C@H]1C(=O)N[C@@H](CCCNC(=N)N)C(=O)N[C@H](CCCNC(=N)N)C(=O)N[C@H](C(=O)N[C@@H](Cc1ccc(O)cc1)C(=O)N[C@@H](CC(N)=O)C(=O)N[C@H](CCCNC(=N)N)C(N)=O)[C@@H](C)CC` gave an MIC of 8 µg/mL (broth microdilution; BW25113; 18 h, 37 °C, 25% MHB2).
